# Experimental data of several laboratories.
# Each numbered part is a random draw from the data of one study; scales do not carry over between parts. Changes are numbered by the printed parent chain.

# Sample 1 — method: RNA Bind-n-Seq; form: RNA; matrix: in vitro; concentration: 200 nM; setting: whole 134-nt RNA, ends assumed; with: 150 mM KCl; reference: input library; reading: higher = stronger binding
# Target: Ras GTPase-activating protein-binding protein 1, full length (G3BP1, Homo sapiens, UniProt Q13283)
# UniProt Q13283, sequence (whole entry, looked up): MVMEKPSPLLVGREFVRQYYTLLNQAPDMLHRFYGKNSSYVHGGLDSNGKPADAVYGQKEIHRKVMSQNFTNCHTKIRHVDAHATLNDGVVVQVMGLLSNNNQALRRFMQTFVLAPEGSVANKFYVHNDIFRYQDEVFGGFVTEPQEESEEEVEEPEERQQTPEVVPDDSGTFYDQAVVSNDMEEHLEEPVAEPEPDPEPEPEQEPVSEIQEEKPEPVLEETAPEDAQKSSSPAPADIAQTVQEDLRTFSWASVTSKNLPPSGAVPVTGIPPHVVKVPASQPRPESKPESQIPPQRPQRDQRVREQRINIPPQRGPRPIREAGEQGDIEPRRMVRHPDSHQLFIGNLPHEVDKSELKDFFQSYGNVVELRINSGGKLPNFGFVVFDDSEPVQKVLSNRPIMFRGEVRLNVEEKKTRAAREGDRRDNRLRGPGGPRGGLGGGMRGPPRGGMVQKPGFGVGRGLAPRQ
# Constant ends, left off below: GGGAGUUCUACAGUCCGACGAUC … UGGAAUUCUCGGGUGUCAAGG
Strand,log2 enrichment
CACAGACAACACGCACCCACACAGACACAGAGGGAAGGGGUUGGGAUGGGGACUGGGUGCACAGCAGGGCGGGGUAGGACCCCAGCCCCU,1.89
AAGUCCUGUGCUACACAUCGUAUGUACCGAAUCGGGGAAAGGGGAAAGGGAAAGGGGAAAGUAUUAUGUUACGCCGUUCGGAUCUGCACU,0.209
UAACUUUAGAGGAGGAUCUGAUGGAUAUGGCAGUGGACGUGGAUUUGGGGAUGGCUAUAAUGGUUAUGGAGGAGGACCUGGAGGUGGCAA,0.223
UCCUGUGCUACACAUCGUAUGUACCGAAUCAAAGUGUGUGUGUAAAGUGUGUGUGUAAAAAAGUAUUAUGUUACGCCGUUCGGAUCUGCA,-0.266
CACAGACAACACGCACCCACACAGAAACAGAGGGAAGGGGUUGGGAUGGGGACAGGGUGCACAGCAGGGCGGGGUAGGACCCCAGCCCCU,1.81
UCUUCAGAGGCCCCACAGUAUCAAAUAUCCGCCUGGCUGGAUUAGAGUAUGUUCUGCACUUCACUGCACUGAAUGGGAAGAUUUACUUUC,-0.12
UCCUGUGCUACACAUCGUAUGUACCGAAUCGGGGCCCCCGGGGCCCCCGGGCCCCCGGGGAAAGUAUUAUGUUACGCCGUUCGGAUCUGC,-0.588
CCUCAAGUCCUGUGCUACACAUCGUAUGUACCGAAUCGGGGCGGGCGGGGCGGAAAGUAUUAUGUUACGCCGUUCGGAUCUGCACUUCCA,1.16

# Sample 2 — method: Spec-seq; form: double-stranded DNA, one strand shown; matrix: in vitro; concentration: not given; setting: whole probe, mean of replicates; reference: not given; reading: lower = stronger binding; constant ends, left off below: GAGTCGTCTCGTCAGCAC … CCGTAGAGCACTCAGGTC
# Target: Transcription factor SOX-2, HMG box (Sox2, Mus musculus, UniProt P48432, residues 41-119)
# UniProt P48432, sequence (41-119, looked up): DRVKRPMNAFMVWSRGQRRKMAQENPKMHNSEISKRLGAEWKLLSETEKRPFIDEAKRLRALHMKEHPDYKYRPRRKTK
Strand,relative binding energy
CATACGA,0.018 ln ratio
CATCATC,0.436 ln ratio
CGTTGTT,-1.37 ln ratio
CATGATT,0.0522 ln ratio
CATACTT,-0.0952 ln ratio
AGAGGTT,0.331 ln ratio
GTTAGTT,0.547 ln ratio
TGTTGTT,-1.71 ln ratio

# Sample 3 — method: protein binding microarray; form: double-stranded DNA, one strand shown; matrix: in vitro; concentration: not given; reference: not given; reading: higher = stronger binding
# Target: Histone acetyltransferase KAT6A, both winged helices, GST fusion (KAT6A, Homo sapiens, UniProt Q92794, residues 1-181)
# Setting: 8-mer, flanks averaged, mean of 2 arrays, mostly near background
# Target sequence (chain): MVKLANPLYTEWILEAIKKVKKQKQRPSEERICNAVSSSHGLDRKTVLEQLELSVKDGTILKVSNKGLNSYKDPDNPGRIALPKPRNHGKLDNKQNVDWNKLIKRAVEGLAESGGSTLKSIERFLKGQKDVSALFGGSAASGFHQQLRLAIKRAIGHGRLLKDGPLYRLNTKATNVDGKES
Strand,E-score
GCAAATCA,0.00542
TCCTCAAA,-0.0949
GGCTAAGA,-0.0683
AGGTATGA,-0.129
GACAGTGA,-0.0599
CTTCGGAC,0.122
ATGACCAG,-0.15
GAGCTTGC,-0.0892

# Sample 4 — method: protein-binding microarray; form: double-stranded DNA, one strand shown; matrix: in vitro; concentration: not given; reading: higher = stronger binding
# Target: TATA-box-binding protein 1 (TBP1, Arabidopsis thaliana, UniProt P28147, residues 1-200, full length assumed)
# Setting: k-mer, scored over probes, only values ≥0.25
# Target sequence (chain): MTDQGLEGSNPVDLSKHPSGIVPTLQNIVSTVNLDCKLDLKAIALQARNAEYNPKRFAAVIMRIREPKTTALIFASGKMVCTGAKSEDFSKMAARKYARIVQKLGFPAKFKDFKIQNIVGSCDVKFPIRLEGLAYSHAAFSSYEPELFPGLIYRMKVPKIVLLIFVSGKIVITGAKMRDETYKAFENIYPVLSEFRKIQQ
Strand,E-score
CCCTATA,0.31
ACCATAT,0.326
CAAAATA,0.278
AGTATAA,0.428
TTAAAAA,0.436
CGTTTTA,0.307
ATAAGAG,0.34
GTTATAA,0.449

# Sample 5 — target: CCNA2, cyclin fold, Cln2 fusion (human); method: yeast growth competition, sequencing; matrix: yeast; setting: strong parent motif; reference: not given; reading: higher = stronger binding; parent: viral docking peptide; KGVKRKLFAEDSS
Substitution,normalised enrichment score
KTVKRKLFAEDSS [G2T],6.31
KGVKRPLFAEDSS [K6P],2.86
KGVKRKLFREDSS [A9R],6.08
KGVLRKLFAEDSS [K4L],1.47
KGVQRKLFAEDSS [K4Q],5.32
KGVKRKLFAEASS [D11A],6.44
KGVKRKLFAECSS [D11C],6.15
KGVKRKLFKEDSS [A9K],5.97
KHVKRKLFAEDSS [G2H],6.41
KGVKAKAFAEDSS [R5A L7A],0.229
KGVKRKLFAEDIS [S12I],6.62
KGQKRKLFAEDSS [V3Q],0.926
KWVKRKLFAEDSS [G2W],5.54
KGVKRKLAAEDSS [F8A],0.874
KGRKRKLFAEDSS [V3R],1.69
KGVKFKLFAEDSS [R5F],1.25
KGVKRKQFAEDSS [L7Q],0.699
KGVKRKLFAVDSS [E10V],5.79
KGVKRKLFAEDTS [S12T],6.22
KGVKRCLFAEDSS [K6C],6.29
KGTKRKLFAEDSS [V3T],4.95
KGVKRKLMAEDSS [F8M],1.17
KGVKGKLFAEDSS [R5G],0.268
KGVKRKLFAEPSS [D11P],6.33
KCVKRKLFAEDSS [G2C],6.77

# A few entries again (sample 4):
Strand,E-score
CCCTATA,0.31
ACCATAT,0.326
CAAAATA,0.278
AGTATAA,0.428
TTAAAAA,0.436
CGTTTTA,0.307
ATAAGAG,0.34
GTTATAA,0.449
